# Assay results collected from several papers.
# A part holds a random share of what one study measured.

# Block 1
# Target: Prothrombin, mature alpha-thrombin (F2, Homo sapiens, UniProt P00734)
# Technique: aptamer microarray, sandwich
# Form: DNA with 2'F-ANA
# Sample: in vitro
# Concentration: 200 nM
# Setting: whole 15-mer aptamer, many near background
# With: Cy3 exosite-II aptamer, 400 nM
# Reading: higher = stronger binding
Sequence,mean fluorescence intensity [a.u.]
GGTTGGTGTGGTTGG (2'F-ANA at 1 3 10 13 14),58.4
GGTTGGTGTGGTTGG (2'F-ANA at 1 2 9 12),390
GGTTGGTGTGGTTGG (2'F-ANA at 3 4 6 8 9 13 14 15),212
GGTTGGTGTGGTTGG (2'F-ANA at 3 7 8 11 13 14),811

# Block 2
# Target: Histone acetyltransferase KAT6A, winged helix 1, GST fusion (KAT6A, Homo sapiens, UniProt Q92794, residues 1-85)
# Technique: protein binding microarray
# Form: double-stranded DNA, one strand shown
# Sample: in vitro
# Concentration: not given
# Setting: 8-mer, flanks averaged, mean of 2 arrays, mostly near background
# Relative to: not given
# Reading: higher = stronger binding
# Construct (chain): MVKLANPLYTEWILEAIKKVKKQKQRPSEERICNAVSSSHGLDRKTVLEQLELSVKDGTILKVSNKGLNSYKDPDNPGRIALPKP
Sequence,E-score
CCAGCCAG,-0.186
CCGGGAGG,0.18
ACCCATCG,-0.0949

# Block 3
# Target: PABPC1L2, full length, GST fusion (mouse, UniProt A0ABA7IW68)
# Technique: RNAcompete
# Form: RNA
# Sample: in vitro
# Concentration: 20 nM
# Setting: 7-mer, probes averaged, single round
# Relative to: mean of 7-mers
# Reading: higher = stronger binding
# Target sequence (chain): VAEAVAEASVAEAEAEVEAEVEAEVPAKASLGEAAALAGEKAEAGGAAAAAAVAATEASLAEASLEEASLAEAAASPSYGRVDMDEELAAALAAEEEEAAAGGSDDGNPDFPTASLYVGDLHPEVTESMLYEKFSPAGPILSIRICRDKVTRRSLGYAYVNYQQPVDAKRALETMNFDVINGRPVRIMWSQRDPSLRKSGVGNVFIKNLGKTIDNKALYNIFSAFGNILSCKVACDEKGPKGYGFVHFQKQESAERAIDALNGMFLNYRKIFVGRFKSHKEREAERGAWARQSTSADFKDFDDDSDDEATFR
Sequence,7-mer Z-score
AGGGCAC,0.274
GUCGUGA,-0.34
CUCGGUU,-0.354

# Mixed results
Substance,target,assay,system,conditions,scale,endpoint,value
"PhoQ, residues 284 288 289 292 302 303 HSYLQF","PhoP, residues 12 14 15 18 19 AQALL (Escherichia coli, UniProt P23836)","Sort-seq, measured: YFP reporter",E. coli,"PhoQ-PhoP variant library, with: 10 µM Mg2+","relative to: high Mg2+ state, higher = stronger signaling",fold induction,12.7
